{"data": "Results collected from several papers", "note": "Every numbered part comes from another study and shows a few of its results, in no order.", "UniProt P25098, sequence (whole entry, looked up)": "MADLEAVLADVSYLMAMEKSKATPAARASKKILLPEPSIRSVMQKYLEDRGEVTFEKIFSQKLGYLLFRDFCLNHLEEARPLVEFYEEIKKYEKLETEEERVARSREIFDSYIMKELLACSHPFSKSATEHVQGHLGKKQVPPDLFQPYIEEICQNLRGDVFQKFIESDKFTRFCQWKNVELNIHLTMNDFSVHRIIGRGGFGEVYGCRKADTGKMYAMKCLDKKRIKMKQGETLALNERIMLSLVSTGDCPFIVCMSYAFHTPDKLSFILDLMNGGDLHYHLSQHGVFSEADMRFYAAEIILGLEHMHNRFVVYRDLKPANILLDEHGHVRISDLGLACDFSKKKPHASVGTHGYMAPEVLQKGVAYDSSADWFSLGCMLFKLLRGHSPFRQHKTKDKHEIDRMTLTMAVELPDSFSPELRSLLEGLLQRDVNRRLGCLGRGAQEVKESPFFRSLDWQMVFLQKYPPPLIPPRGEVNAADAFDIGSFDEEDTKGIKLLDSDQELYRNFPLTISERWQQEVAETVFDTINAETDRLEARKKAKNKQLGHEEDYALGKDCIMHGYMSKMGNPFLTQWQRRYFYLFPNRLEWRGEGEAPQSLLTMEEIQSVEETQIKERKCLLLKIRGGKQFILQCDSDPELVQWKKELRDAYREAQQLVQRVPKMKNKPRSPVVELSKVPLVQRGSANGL", "UniProt Q9UM73, sequence (whole entry, looked up)": "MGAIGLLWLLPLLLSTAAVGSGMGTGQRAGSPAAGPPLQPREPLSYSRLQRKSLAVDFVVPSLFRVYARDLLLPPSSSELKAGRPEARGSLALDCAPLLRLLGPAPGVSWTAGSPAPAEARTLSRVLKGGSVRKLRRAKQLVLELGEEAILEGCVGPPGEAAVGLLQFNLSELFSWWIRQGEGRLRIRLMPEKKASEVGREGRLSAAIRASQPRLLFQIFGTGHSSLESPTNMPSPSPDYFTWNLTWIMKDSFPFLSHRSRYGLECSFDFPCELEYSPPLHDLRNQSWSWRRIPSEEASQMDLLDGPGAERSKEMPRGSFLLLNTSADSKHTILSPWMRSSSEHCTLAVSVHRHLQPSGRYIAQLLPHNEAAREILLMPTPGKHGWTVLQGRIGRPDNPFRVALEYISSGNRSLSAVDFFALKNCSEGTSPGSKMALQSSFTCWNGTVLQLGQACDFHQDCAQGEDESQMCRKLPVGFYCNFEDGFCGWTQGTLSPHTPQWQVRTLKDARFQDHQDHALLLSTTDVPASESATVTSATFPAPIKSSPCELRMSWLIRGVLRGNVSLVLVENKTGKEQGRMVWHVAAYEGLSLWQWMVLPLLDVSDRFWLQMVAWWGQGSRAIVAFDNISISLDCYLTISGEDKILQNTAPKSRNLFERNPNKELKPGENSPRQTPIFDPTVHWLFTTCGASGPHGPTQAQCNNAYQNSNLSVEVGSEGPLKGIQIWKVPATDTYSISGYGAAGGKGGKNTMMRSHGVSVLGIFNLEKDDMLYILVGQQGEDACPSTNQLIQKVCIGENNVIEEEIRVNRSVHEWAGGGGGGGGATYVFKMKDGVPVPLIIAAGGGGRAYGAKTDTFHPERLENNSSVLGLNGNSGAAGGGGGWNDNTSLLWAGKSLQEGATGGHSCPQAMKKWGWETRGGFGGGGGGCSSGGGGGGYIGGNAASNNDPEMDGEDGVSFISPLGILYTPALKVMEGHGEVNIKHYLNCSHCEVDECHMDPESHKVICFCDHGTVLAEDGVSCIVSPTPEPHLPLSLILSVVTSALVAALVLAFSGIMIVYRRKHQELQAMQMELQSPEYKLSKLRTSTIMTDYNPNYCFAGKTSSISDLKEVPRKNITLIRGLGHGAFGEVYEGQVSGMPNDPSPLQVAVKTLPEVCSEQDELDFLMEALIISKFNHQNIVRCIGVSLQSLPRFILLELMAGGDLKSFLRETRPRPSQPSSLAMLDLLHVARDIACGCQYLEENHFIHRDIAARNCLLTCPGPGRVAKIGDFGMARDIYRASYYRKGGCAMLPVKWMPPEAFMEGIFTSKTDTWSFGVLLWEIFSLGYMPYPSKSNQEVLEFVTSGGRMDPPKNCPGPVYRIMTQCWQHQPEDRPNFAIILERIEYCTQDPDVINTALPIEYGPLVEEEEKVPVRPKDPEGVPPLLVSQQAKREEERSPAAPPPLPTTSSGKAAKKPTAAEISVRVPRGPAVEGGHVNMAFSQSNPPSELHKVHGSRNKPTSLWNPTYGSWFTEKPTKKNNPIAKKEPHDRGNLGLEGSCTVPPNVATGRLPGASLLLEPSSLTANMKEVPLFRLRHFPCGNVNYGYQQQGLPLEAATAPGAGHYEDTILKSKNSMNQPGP", "UniProt P78368, sequence (whole entry, looked up)": "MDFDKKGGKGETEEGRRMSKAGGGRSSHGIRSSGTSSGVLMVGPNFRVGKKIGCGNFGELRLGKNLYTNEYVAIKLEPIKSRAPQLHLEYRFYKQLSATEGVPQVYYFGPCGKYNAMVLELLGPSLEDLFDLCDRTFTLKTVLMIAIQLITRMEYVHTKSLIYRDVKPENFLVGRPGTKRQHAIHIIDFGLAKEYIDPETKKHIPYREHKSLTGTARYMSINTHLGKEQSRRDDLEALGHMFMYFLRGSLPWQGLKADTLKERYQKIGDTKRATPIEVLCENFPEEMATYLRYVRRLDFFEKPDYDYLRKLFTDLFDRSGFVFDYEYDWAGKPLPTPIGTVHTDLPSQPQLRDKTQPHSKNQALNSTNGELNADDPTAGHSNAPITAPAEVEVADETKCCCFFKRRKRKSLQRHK", "UniProt Q9HCP0, sequence (whole entry, looked up)": "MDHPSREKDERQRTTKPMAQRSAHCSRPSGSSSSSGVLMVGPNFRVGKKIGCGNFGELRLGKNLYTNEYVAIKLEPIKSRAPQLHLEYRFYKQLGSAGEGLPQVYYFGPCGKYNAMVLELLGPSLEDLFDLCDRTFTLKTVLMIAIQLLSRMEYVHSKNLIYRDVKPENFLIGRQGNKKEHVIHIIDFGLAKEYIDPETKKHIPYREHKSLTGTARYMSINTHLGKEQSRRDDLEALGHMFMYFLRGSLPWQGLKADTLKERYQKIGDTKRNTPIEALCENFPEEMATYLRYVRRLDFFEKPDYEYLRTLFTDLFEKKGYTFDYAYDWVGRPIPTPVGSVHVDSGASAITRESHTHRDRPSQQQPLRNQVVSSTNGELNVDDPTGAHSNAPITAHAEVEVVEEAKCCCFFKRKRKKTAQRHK", "UniProt P27361, sequence (whole entry, looked up)": "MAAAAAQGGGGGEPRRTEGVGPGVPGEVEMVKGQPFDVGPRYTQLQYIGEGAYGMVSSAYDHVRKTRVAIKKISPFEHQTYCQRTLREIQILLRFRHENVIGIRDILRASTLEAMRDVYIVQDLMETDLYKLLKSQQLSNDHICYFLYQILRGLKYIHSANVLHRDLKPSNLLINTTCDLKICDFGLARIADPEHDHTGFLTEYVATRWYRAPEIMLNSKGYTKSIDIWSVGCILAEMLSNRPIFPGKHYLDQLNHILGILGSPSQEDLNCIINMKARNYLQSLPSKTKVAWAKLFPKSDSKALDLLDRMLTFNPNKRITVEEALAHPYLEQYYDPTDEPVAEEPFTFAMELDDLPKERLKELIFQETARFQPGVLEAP", "UniProt P15056, sequence (whole entry, looked up)": "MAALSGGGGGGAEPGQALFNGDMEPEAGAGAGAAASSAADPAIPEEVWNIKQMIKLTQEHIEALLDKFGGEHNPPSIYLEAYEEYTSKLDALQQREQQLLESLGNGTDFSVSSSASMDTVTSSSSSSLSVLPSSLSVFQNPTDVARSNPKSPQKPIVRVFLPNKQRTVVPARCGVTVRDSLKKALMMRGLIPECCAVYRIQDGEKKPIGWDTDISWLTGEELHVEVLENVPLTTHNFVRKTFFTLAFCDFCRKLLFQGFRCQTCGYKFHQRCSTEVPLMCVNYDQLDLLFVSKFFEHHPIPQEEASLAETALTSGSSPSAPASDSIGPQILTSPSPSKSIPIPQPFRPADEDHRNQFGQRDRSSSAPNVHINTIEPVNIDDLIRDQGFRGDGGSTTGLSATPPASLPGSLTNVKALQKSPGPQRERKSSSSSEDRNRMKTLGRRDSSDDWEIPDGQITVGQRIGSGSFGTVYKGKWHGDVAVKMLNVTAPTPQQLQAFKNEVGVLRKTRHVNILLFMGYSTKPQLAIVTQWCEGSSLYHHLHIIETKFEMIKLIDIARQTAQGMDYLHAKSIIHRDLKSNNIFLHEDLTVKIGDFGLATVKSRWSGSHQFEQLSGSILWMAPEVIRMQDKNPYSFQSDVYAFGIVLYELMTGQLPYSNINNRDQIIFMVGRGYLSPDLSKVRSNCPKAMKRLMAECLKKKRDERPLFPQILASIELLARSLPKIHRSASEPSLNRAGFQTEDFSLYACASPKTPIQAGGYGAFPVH", "UniProt Q6P2M8, sequence (whole entry, looked up)": "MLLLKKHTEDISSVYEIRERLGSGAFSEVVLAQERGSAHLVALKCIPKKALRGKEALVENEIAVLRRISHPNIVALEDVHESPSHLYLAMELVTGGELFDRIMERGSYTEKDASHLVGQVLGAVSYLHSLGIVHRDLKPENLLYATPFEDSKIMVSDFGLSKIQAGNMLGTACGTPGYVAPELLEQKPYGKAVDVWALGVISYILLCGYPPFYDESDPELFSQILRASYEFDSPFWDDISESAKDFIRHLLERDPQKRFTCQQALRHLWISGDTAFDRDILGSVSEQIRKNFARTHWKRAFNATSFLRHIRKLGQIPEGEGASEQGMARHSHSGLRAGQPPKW"}
{"data": "Block 1", "target": "Fragile X messenger ribonucleoprotein 1, C-terminal low-complexity region (Fmr1, Mus musculus, UniProt P35922)", "technique": "RNA Bind-n-Seq", "form": "RNA", "sample": "in vitro", "concentration": "200 nM", "setting": "whole 134-nt RNA, ends assumed", "with": "150 mM KCl", "relative to": "input library", "reading": "higher = stronger binding", "constant ends, left off below": "GGGAGUUCUACAGUCCGACGAUC … UGGAAUUCUCGGGUGUCAAGG"}
{"Oligonucleotide": "GUCCUGUGCUACACAUCGUAUGUACCGAAUCAAAUUUAAACCCCCAAACCCCCCCAAAAAAGUAUUAUGUUACGCCGUUCGGAUCUGCAC", "log2 enrichment": -0.213}
{"Oligonucleotide": "AAGUCCUGUGCUACACAUCGUAUGUACCGAAUCGGGUUUGGGGUUUGGGGUUUGGGAAAGUAUUAUGUUACGCCGUUCGGAUCUGCACUU", "log2 enrichment": 0.684}
{"Oligonucleotide": "CUCAAGUCCUGUGCUACACAUCGUAUGUACCGAAUCGGUUUGGUUUGGGUUUGGAAAGUAUUAUGUUACGCCGUUCGGAUCUGCACUUCC", "log2 enrichment": -0.266}
{"Oligonucleotide": "CACAGACAACACGCACCCACACAAACACAGAGGGAAGGGGUUGGGAUGGGGACAGGGUGCACAGCAGGGCGGGGUAGGACCCCAGCCCCU", "log2 enrichment": 1.22}
{"Oligonucleotide": "CACAGACAACACGCACCCACACAGACACAGAGGGAAGGGGUUGGGAUUGGGACAGGGUGCACAGCAGGGCGGGGUAGGACCCCAGCCCCU", "log2 enrichment": 1.32}
{"Oligonucleotide": "CACAGACAACACGCACCAACACAGACACAGAGGGAAGGGGUUGGGAUGGGGACAGGGUGCACAGCAGGGCGGGGUAGGACCCCAGCCCCU", "log2 enrichment": 1.26}
{"Oligonucleotide": "CAAGUCCUGUGCUACACAUCGUAUGUACCGAAUCGGGUUUGGGAGGGAAAAAGGGAAAGUAUUAUGUUACGCCGUUCGGAUCUGCACUUC", "log2 enrichment": 0.789}
{"Oligonucleotide": "AAGUCCUGUGCUACACAUCGUAUGUACCGAAUCGGGGCCCGGGGCCCGGCCCGGGGAAAGUAUUAUGUUACGCCGUUCGGAUCUGCACUU", "log2 enrichment": -0.624}
{"data": "Block 2", "cell line": "mouse MPNST tumor cells", "technique": "high-content immunofluorescence imaging", "refers to": "nuclear SOX9", "concentration": "10 µM", "time": "12 h", "setting": "mean of 2 replicates", "relative to": "DMSO control", "reading": "higher = more nuclear SOX9"}
{"Structure (SMILES)": "CSc1nc(N)cc(Oc2ccc(-c3nc(Nc4cccc(C(F)(F)F)c4)n[nH]3)cc2)n1", "nuclear SOX9 intensity": "192 % of DMSO"}
{"Structure (SMILES)": "NC(=O)N[C@@H](CCC(=O)O)C(=O)O", "nuclear SOX9 intensity": "87.9 % of DMSO"}
{"Structure (SMILES)": "C[C@H](O)C(=O)Nc1c(I)c(C(=O)NC(CO)CO)c(I)c(C(=O)NC(CO)CO)c1I", "nuclear SOX9 intensity": "97.2 % of DMSO"}
{"data": "Block 3", "target": "Histone acetyltransferase KAT6A, both winged helices, GST fusion (KAT6A, Homo sapiens, UniProt Q92794, residues 1-181)", "technique": "protein binding microarray", "form": "double-stranded DNA, one strand shown", "sample": "in vitro", "concentration": "not given", "setting": "8-mer, flanks averaged, mean of 2 arrays, mostly near background", "relative to": "not given", "reading": "higher = stronger binding", "Residues (chain)": "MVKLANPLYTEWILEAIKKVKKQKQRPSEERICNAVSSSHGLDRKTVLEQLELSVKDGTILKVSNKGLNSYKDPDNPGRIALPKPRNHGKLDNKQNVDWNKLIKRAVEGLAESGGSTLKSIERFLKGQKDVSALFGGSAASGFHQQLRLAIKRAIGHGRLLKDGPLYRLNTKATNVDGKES"}
{"Oligonucleotide": "CACCCCCC", "E-score": -0.014}
{"Oligonucleotide": "CACTTCAC", "E-score": -0.0166}
{"Oligonucleotide": "ATCTTGGC", "E-score": -0.182}
{"Oligonucleotide": "CAAGAAGA", "E-score": -0.177}
{"Oligonucleotide": "TCGGGACA", "E-score": -0.0428}
{"Oligonucleotide": "ATTGTCGG", "E-score": 0.124}
{"Oligonucleotide": "AGCGTAGG", "E-score": 0.0511}
{"Oligonucleotide": "TAATGAGA", "E-score": -0.0911}
{"data": "Block 4", "SMILES": "O=C(Nc1ccc(Oc2ccc(F)cc2)cc1)N1CCc2ncccc2[C@H]1c1ccc(F)cc1", "effect on": "cell-free assay", "technique": "competition with immobilised ligand", "concentration": "1 µM"}
{"target": "GRK2 (Homo sapiens, UniProt P25098)", "remaining binding": "92%"}
{"target": "MAPK6 (Homo sapiens, UniProt Q16659)", "remaining binding": "98%"}
{"target": "LIM domain kinase 1 (LIMK1, Homo sapiens, UniProt P53667)", "remaining binding": "85%"}
{"target": "SYK (Homo sapiens, UniProt P43405)", "remaining binding": "91%"}
{"target": "MAPK3 (Homo sapiens, UniProt P27361)", "remaining binding": "87%"}
{"target": "PNCK (Homo sapiens, UniProt Q6P2M8)", "remaining binding": "96%"}
{"target": "CSNK1G1 (Homo sapiens, UniProt Q9HCP0)", "remaining binding": "90%"}
{"target": "GSK3A (Homo sapiens, UniProt P49840)", "remaining binding": "95%"}
{"target": "BUB1 (Homo sapiens, UniProt O43683)", "remaining binding": "98%"}
{"target": "CSNK1G2 (Homo sapiens, UniProt P78368)", "remaining binding": "98%"}
{"target": "EPHB3 (Homo sapiens, UniProt P54753)", "remaining binding": "100%"}
{"target": "BRAF (Homo sapiens, UniProt P15056)", "remaining binding": "85%"}
{"target": "ANKK1 (Homo sapiens, UniProt Q8NFD2)", "remaining binding": "92%"}
{"target": "ALK (Homo sapiens, UniProt Q9UM73)", "remaining binding": "100%"}
{"data": "Other studies, line by line"}
{"Structure (SMILES)": "C=CCc1ccc(O)c(-c2ccc(O)c(CC=C)c2)c1", "target or system": "Anoctamin-1 (ANO1, Homo sapiens, UniProt Q5XXA6, del476-501/E650A)", "assay": "chloride current, whole-cell voltage clamp", "conditions": "membrane voltage -100 mV", "measurement": "IC50", "value": "9.34 µM"}
{"Structure (SMILES)": "CC(C)n1cnc(-c2ccc(F)cc2)c1-c1ncc(C(=O)Nc2ccc(N3CCN(C)CC3)cc2)[nH]1", "system": "IPF patients", "conditions": "60 mg once daily, adverse event", "measurement": "Hypertriglyceridaemia incidence", "value": "0%"}
{"note": "Some of these lines once more (block 3):"}
{"Oligonucleotide": "AGCGTAGG", "E-score": 0.0511}
{"Oligonucleotide": "CAAGAAGA", "E-score": -0.177}
{"Oligonucleotide": "ATCTTGGC", "E-score": -0.182}
